# Assay results collected from several papers.
# Each line is one published result; not all experiments were run side by side. ± gives the spread as reported.
Structure (SMILES),tested on,assay,test system,setting,scale,measurement,value
CC(C)C[C@H](NC(=O)[C@@H]1CCCN1C(=O)[C@H](CCCCN)NC(=O)[C@@H](N)CO)C(=O)N1CCC[C@H]1C(=O)N[C@@H](CCC(=O)O)C(=O)N[C@H](C(=O)N[C@H](C(=O)N[C@@H](CC(=O)O)C(=O)N[C@@H](CCC(=O)O)C(=O)N[C@@H](Cc1ccc(O)cc1)C(=O)N[C@@H](Cc1cn(CCOCCOCCOCCNC(=O)CCc2ccc(O)c(CN(CCN(CC(=O)O)Cc3cc(CCC(=O)NCCCC[C@H](NC(=O)N[C@@H](CCC(=O)O)C(=O)O)C(=O)O)ccc3O)CC(=O)O)c2)nn1)C(=O)O)[C@@H](C)O)C(C)C [gallium-68 labelled],,,"NMRI nu/nu mice, LNCaP tumour, spleen","135.34 nmol/kg, low molar activity",,standardized uptake value,0.1 g/g
N=C(N)NCCC[C@@H]1NC(=O)[C@H](CCCCNC(=O)CC[C@H](NC(=O)CCOCCOCCOCCOCCNC(=O)CC[C@H](NC(=O)CN2CCN(CC(=O)O)CCN(CC(=O)O)CCN(CC(=O)O)CC2)C(=O)NCCOCCOCCOCCOCCC(=O)N[C@@H](CCC(=O)NCCCC[C@@H]2NC(=O)[C@@H](Cc3ccccc3)NC(=O)[C@H](CC(=O)O)NC(=O)CNC(=O)[C@H](CCCNC(=N)N)NC2=O)C(=O)NCCCC[C@@H]2NC(=O)[C@@H](Cc3ccccc3)NC(=O)[C@H](CC(=O)O)NC(=O)CNC(=O)[C@H](CCCNC(=N)N)NC2=O)C(=O)NCCCC[C@@H]2NC(=O)[C@@H](Cc3ccccc3)NC(=O)[C@H](CC(=O)O)NC(=O)CNC(=O)[C@H](CCCNC(=N)N)NC2=O)NC(=O)[C@@H](Cc2ccccc2)NC(=O)[C@H](CC(=O)O)NC(=O)CNC1=O [indium-111 labelled],,,female athymic nude mouse,"intravenous, 3 µCi, 24 h, U-87 MG glioma xenograft",reference: tumour over muscle,tumour to muscle ratio,16.8 ± 9.92
CSCC[C@H](NC(=O)[C@H](CC(C)C)NC(=O)[C@H](Cc1c[nH]cn1)NC(=O)CNC(=O)[C@@H](NC(=O)[C@H](C)NC(=O)[C@H](Cc1c[nH]c2ccccc12)NC(=O)[C@H](CCC(N)=O)NC(=O)CCCCNC(=O)CSCCSCCP(CO)CO)C(C)C)C(N)=O [technetium-99m labelled],,,"female CF-1 mouse, urine","intravenous, dose not given, 1 h",,urinary excretion,20.3%
CCCCCCCCOCc1cn(CC2=CC[C@@H]3C(C(=O)OC)=CO[C@@H](O)[C@H]23)nn1,SK-N-SH,"neuroprotection, MTT",,"0.15 µM, 24 h, together with: 250 µM H2O2",,viability,53.2 ± 1.7%
CCCC[C@H](NC(=O)CCCCCCCNC(=O)c1ccc(NN)nc1)C(=O)N[C@H]1CC(=O)NCCCC[C@@H](C(N)=O)NC(=O)[C@H](Cc2c[nH]c3ccccc23)NC(=O)[C@H](CCCNC(=N)N)NC(=O)[C@@H](Cc2ccccc2)NC(=O)[C@H](Cc2c[nH]cn2)NC1=O [technetium-99m labelled],,,"C57 mouse, B16/F1 melanoma, liver","intravenous, 4 h",,uptake,1.26 ± 0.6 %ID/g
CSCC[C@H](NC(=O)[C@H](CC(C)C)NC(=O)[C@H](Cc1c[nH]cn1)NC(=O)CNC(=O)[C@@H](NC(=O)[C@H](C)NC(=O)[C@H](Cc1c[nH]c2ccccc12)NC(=O)[C@H](CCC(N)=O)NC(=O)CCCCCNC(=O)CNC(=O)CNC(=O)CNC(=O)CSC(C)=O)C(C)C)C(N)=O [technetium-99m labelled],,,"nude mouse, PC-3 xenograft, muscle",30 min,,tissue uptake,0.27 ± 0.09 %ID/g
Cc1ncsc1-c1ccc(CNC(=O)[C@@H]2C[C@@H](OC(=O)OCCSSCCn3cc(CCCC(=O)N[C@@H](Cc4ccc(O)cc4)C(=O)N[C@@H](CCCNC(=N)N)C(=O)N[C@@H](CCCNC(=N)N)C(=O)N[C@@H](CCCNC(=N)N)C(=O)N[C@@H](CCCNC(=N)N)C(=O)N[C@@H](CCCNC(=N)N)C(=O)N[C@@H](CCCNC(=N)N)C(=O)N[C@@H](CCCNC(=N)N)C(=O)N[C@@H](CCCNC(=N)N)C(=O)N[C@@H](CCCNC(=N)N)C(N)=O)nn3)CN2C(=O)[C@@H](NC(=O)COCCOCCOCCNC(=O)C[C@@H]2N=C(c3ccc(Cl)cc3)c3c(sc(C)c3C)-n3c(C)nnc32)C(C)(C)C)cc1,,UHPLC,PBS,"100 nM, 6 h, 37 °C, together with: 5 mM glutathione",reference: total peak area,released payload,100%
COC(=O)C1=CO[C@@H](OC(C)=O)[C@@H]2C(Cn3cc(CCN4C(=O)c5ccccc5C4=O)nn3)=CC[C@H]12,SK-N-SH,"neuroprotection, MTT",,"0.075 µM, 24 h, together with: 250 µM H2O2",,viability,53.2 ± 2.5%
N=C(N)NCCC[C@@H]1NC(=O)[C@H](CCCCNC(=O)CCOCCOCCOCCOCCNC(=O)CN2CCN(CC(=O)O)CCN(CC(=O)O)CCN(CC(=O)O)CC2)NC(=O)[C@@H](Cc2ccccc2)NC(=O)[C@H](CC(=O)O)NC(=O)CNC1=O [indium-111 labelled],,,"athymic nude mice, female, U-87 MG glioma xenograft, tumour and kidney","intravenous, 24 h",reference: tumour over kidney,tumour to tissue ratio,0.75 ± 0.07
C[C@@H](O)[C@H](NC(=O)[C@@H]1CSSC[C@H](NC(=O)[C@@H](Cc2ccccc2)NC(=O)CN2CCCN3CCN(CCCN(CP(=O)(O)O)CC3)CC2)C(=O)N[C@@H](Cc2ccc(O)cc2)C(=O)N[C@H](Cc2c[nH]c3ccccc23)C(=O)N[C@@H](CCCCN)C(=O)N[C@@H]([C@@H](C)O)C(=O)N1)C(=O)O [copper-64 labelled],,,"male Lewis rat, AR-42J tumour-bearing, SSTR2-expressing tissues","dose not given, 4 h, together with: Y3-TATE 200 µg coinjected",reference: unblocked,uptake reduction by blocking,≥ 90%
N=C(N)NCCC[C@@H]1NC(=O)[C@H](CCCCNC(=O)CNC(=O)CNC(=O)CNC(=O)CC[C@H](NC(=O)CCOCCOCCOCCOCCNC(=O)CC[C@H](NC(=O)CN2CCN(CC(=O)O)CCN(CC(=O)O)CCN(CC(=O)O)CC2)C(=O)NCCOCCOCCOCCOCCC(=O)N[C@@H](CCC(=O)NCC(=O)NCC(=O)NCC(=O)NCCCC[C@@H]2NC(=O)[C@@H](Cc3ccccc3)NC(=O)[C@H](CC(=O)O)NC(=O)CNC(=O)[C@H](CCCNC(=N)N)NC2=O)C(=O)NCC(=O)NCC(=O)NCC(=O)NCCCC[C@@H]2NC(=O)[C@@H](Cc3ccccc3)NC(=O)[C@H](CC(=O)O)NC(=O)CNC(=O)[C@H](CCCNC(=N)N)NC2=O)C(=O)NCC(=O)NCC(=O)NCC(=O)NCCCC[C@@H]2NC(=O)[C@@H](Cc3ccccc3)NC(=O)[C@H](CC(=O)O)NC(=O)CNC(=O)[C@H](CCCNC(=N)N)NC2=O)NC(=O)[C@@H](Cc2ccccc2)NC(=O)[C@H](CC(=O)O)NC(=O)CNC1=O [indium-111 labelled],,,"athymic nude mice, female, U-87 MG glioma xenograft, tumour and lungs","intravenous, 72 h",reference: tumour over lungs,tumour to tissue ratio,8.73 ± 1.7
CCCC[C@H](NC(=O)CNC(=O)CNC(=O)c1ccc(NN)nc1)C(=O)N[C@H]1CC(=O)NCCCC[C@@H](C(N)=O)NC(=O)[C@H](Cc2c[nH]c3ccccc23)NC(=O)[C@H](CCCNC(=N)N)NC(=O)[C@@H](Cc2ccccc2)NC(=O)[C@H](Cc2c[nH]cn2)NC1=O [technetium-99m labelled],,,"C57 mouse, B16/F1 melanoma, skin","2 h, together with: L-lysine 12 mg",,uptake,0.23 ± 0.03 %ID/g
CCCC[C@H](NC(=O)CNC(=O)[C@H](CO)NC(=O)CNC(=O)c1ccc(NN)nc1)C(=O)N[C@H]1CC(=O)NCCCC[C@@H](C(N)=O)NC(=O)[C@H](Cc2c[nH]c3ccccc23)NC(=O)[C@H](CCCNC(=N)N)NC(=O)[C@@H](Cc2ccccc2)NC(=O)[C@H](Cc2c[nH]cn2)NC1=O [technetium-99m labelled],,,"C57 mouse, B16/F1 melanoma, lung","intravenous, 2 h",,uptake,0.15 ± 0.05 %ID/g

# Repeated from above:
Structure (SMILES),tested on,assay,test system,setting,scale,measurement,value
Cc1ncsc1-c1ccc(CNC(=O)[C@@H]2C[C@@H](OC(=O)OCCSSCCn3cc(CCCC(=O)N[C@@H](Cc4ccc(O)cc4)C(=O)N[C@@H](CCCNC(=N)N)C(=O)N[C@@H](CCCNC(=N)N)C(=O)N[C@@H](CCCNC(=N)N)C(=O)N[C@@H](CCCNC(=N)N)C(=O)N[C@@H](CCCNC(=N)N)C(=O)N[C@@H](CCCNC(=N)N)C(=O)N[C@@H](CCCNC(=N)N)C(=O)N[C@@H](CCCNC(=N)N)C(=O)N[C@@H](CCCNC(=N)N)C(N)=O)nn3)CN2C(=O)[C@@H](NC(=O)COCCOCCOCCNC(=O)C[C@@H]2N=C(c3ccc(Cl)cc3)c3c(sc(C)c3C)-n3c(C)nnc32)C(C)(C)C)cc1,,UHPLC,PBS,"100 nM, 6 h, 37 °C, together with: 5 mM glutathione",reference: total peak area,released payload,100%
